# Measured values pooled from the literature.
# Each line is one published result; not all experiments were run side by side. “And” joins repeats or separate records; there may be more than shown. Numbers after ± are the reported error.
Structure (SMILES),cell line,assay,test system,setting,scale,endpoint,result
Nc1ncnc2c1c(I)cn2[C@@H]1O[C@H](CO)C[C@H]1O,MRC-5 SV2,"cytotoxicity, resazurin",medium with 5% FBS,72 h,,EC50,3.4 ± 1.3 µM
CC(C)CCCCC(=O)N[C@@H](CCN)C(=O)N[C@H](C(=O)N[C@@H](CCN)C(=O)N[C@H]1CCNC(=O)[C@H]([C@@H](C)O)NC(=O)[C@H](CCN)NC(=O)[C@H](CCN)NC(=O)[C@H](CC(C)C)NC(=O)[C@@H](Cc2ccccc2)NC(=O)[C@H](CCN)NC1=O)[C@@H](C)O,human red blood cells,haemolysis,,"4 h, pH 7.4, 25 °C",,minimum haemolytic concentration,> 2000 µg/mL
CN(C)C(=O)C1CN1S(=O)(=O)c1ccc2c(C=O)c(N(C)C)ccc2c1 (stereo not shown),Balb/c 3T3 fibroblasts,"cytotoxicity, neutral red uptake",DMEM with 5% FBS,24 h,,IC50,5 ± 0.7 µM
CCCN(CC(=O)N(CCC)CC(=O)N(CCC)CC(=O)N(CCC)CC(=O)N(CC(=O)N(CCC)CC(=O)N(CCC)CC(=O)N(CCC)CC(=O)N(CCC)CC(=O)N(CC(N)=O)Cc1cn(CCCNC(=O)CCCOc2cccc(-c3nc4ccc(-c5nc6ccc(N7CCN(C)CC7)cc6[nH]5)cc4[nH]3)c2)nn1)Cc1cn(CCCNC(=O)CCCOc2cccc(-c3nc4ccc(-c5nc6ccc(N7CCN(C)CC7)cc6[nH]5)cc4[nH]3)c2)nn1)C(=O)CNCc1cn(CCCNC(=O)CCCOc2cccc(-c3nc4ccc(-c5nc6ccc(N7CCN(C)CC7)cc6[nH]5)cc4[nH]3)c2)nn1,C2C12,flow cytometry,,"5 µM, 14 h",,compound fluorescence-only positive cells,44%
CN(C)C(=O)C1CN1S(=O)(=O)c1ccc(N(C)C)c2ccccc12 (stereo not shown),Balb/c 3T3 fibroblasts,"cytotoxicity, neutral red uptake",DMEM with 5% FBS,24 h,,IC50,257 ± 18 µM
CC(C)C[C@@H]1NC(=O)[C@H](Cc2ccc3ccccc3c2)NC(=O)[C@H](CCCNC(=N)N)NC(=O)[C@H](CCCNC(=N)N)NC(=O)[C@H](CCCNC(=N)N)NC(=O)[C@H](CCCNC(=N)N)NC(=O)[C@H](Cc2ccc3ccccc3c2)NC1=O,human red blood cells,hemolysis,,,,HC50,170 µg/mL
CC1(C)CCN(Cc2ccc(C(=O)NC[C@]3(O)CCCN(c4cc(NCc5ccccc5)ncn4)C3)c(O)c2)CC1,Caco-2,,,"10 µM, 90 min, basolateral to apical",,mass recovery,92.4%
CC[C@H](C)[C@H](NC(=O)[C@H](C)NC(=O)CNC(=O)[C@H](Cc1ccccc1)NC(=O)[C@H](CC(N)=O)NC(=O)[C@H](CC(N)=O)NC(=O)[C@H](CO)NC(=O)[C@H](CO)NC(=O)[C@H](Cc1c[nH]cn1)NC(=O)[C@@H](NC(=O)[C@H](CC(C)C)NC(=O)[C@H](Cc1ccccc1)NC(=O)[C@H](CC(N)=O)NC(=O)[C@H](C)NC(=O)[C@H](CC(C)C)NC(=O)[C@H](CCCNC(=N)N)NC(=O)[C@H](CCC(N)=O)NC(=O)[C@@H](NC(=O)[C@H](C)NC(=O)[C@@H]1CSSC[C@H](NC(=O)[C@@H](N)CCCCN)C(=O)N[C@@H](CC(N)=O)C(=O)N[C@@H]([C@@H](C)O)C(=O)N[C@@H](C)C(=O)N[C@@H]([C@@H](C)O)C(=O)N1)[C@@H](C)O)C(C)C)C(=O)N[C@@H](CC(C)C)C(=O)N[C@@H](CO)C(=O)N[C@@H](CO)C(=O)N[C@H](C(=O)N[C@@H](CC(N)=O)C(=O)N[C@H](C(=O)NCC(=O)N[C@@H](CO)C(=O)N[C@@H](CC(N)=O)C(=O)N[C@H](C(=O)N[C@@H](Cc1ccc(O)cc1)C(N)=O)[C@@H](C)O)C(C)C)[C@@H](C)O,INS-1,AlamarBlue,,"42 µM, 48 h",reference: medium alone,viability,9 ± 9%
COc1cc2c(cc1O)[C@]1(O)C(=O)c3c(O)cc4c(c3O[C@@H]1CO2)C=CC(C)(C)O4,RAW264.7,"cell growth or viability, MTT",,"12.5 µg/mL, 24 h",,viability,95.7%
CCCCCCCCCCCCCCCCCC(=O)N[C@@H](CCCNC(=N)N)C(=O)N[C@@H](CCCNC(=N)N)C(=O)N[C@@H](CCCNC(=N)N)C(=O)N[C@@H](CCCNC(=N)N)C(=O)N[C@@H](CCCNC(=N)N)C(N)=O,human red blood cells,haemolysis,,,,HC50,> 32 µg/mL and < 32 µg/mL
CCCN(CC(=O)N(CCC)CC(=O)N(CCC)CC(=O)N(CCC)CC(=O)N(CC(=O)N(CCC)CC(=O)N(CCC)CC(=O)N(CCC)CC(=O)N(CCC)CC(=O)N(CC(=O)N(CCC)CC(=O)N(CCC)CC(=O)N(CCC)CC(=O)N(CCC)CC(=O)N(CC(N)=O)Cc1cn(CCCNC(=O)CCCOc2cccc(-c3nc4ccc(-c5nc6ccc(N7CCN(C)CC7)cc6[nH]5)cc4[nH]3)c2)nn1)Cc1cn(CCCNC(=O)CCCOc2cccc(-c3nc4ccc(-c5nc6ccc(N7CCN(C)CC7)cc6[nH]5)cc4[nH]3)c2)nn1)Cc1cn(CCCNC(=O)CCCOc2cccc(-c3nc4ccc(-c5nc6ccc(N7CCN(C)CC7)cc6[nH]5)cc4[nH]3)c2)nn1)C(=O)CNCc1cn(CCCNC(=O)CCCOc2cccc(-c3nc4ccc(-c5nc6ccc(N7CCN(C)CC7)cc6[nH]5)cc4[nH]3)c2)nn1,C2C12,flow cytometry,,"5 µM, 48 h",,compound fluorescence-only positive cells,90%
COc1cc(/C=C/C(=O)CC(C)=O)ccc1O,normal cells,,,up to 10 µM,,cytotoxicity,toxic
Nc1ncnc2c1ccn2[C@H]1C[C@H](O)[C@@H](CO)O1,MRC-5 SV2,"cytotoxicity, resazurin",medium with 5% FBS,72 h,,EC50,> 64 µM
CC1(C)CCCC(C)(C2CCC3(C)C2C(O)CC2C4(C)CCC(OC(=O)/C=C\c5ccc(Cl)cc5)C(C)(C)C4C(O)CC23C)O1 (stereo not shown),Hep3B,"cell growth or viability, MTT",,24 h,,IC50,> 30 µM
CC(C)=CCc1c2c(c(O)c3c(=O)c(-c4ccc(O)cc4)coc13)CC(C(C)(C)O)O2 (stereo not shown),A549,"cell growth or viability, MTT",,6.25 µg/mL,,viability,142%
CC1(C)CCCC(C)(C2CCC3(C)C2C(O)CC2C4(C)CCC(O)C(C)(C)C4C(OC(=O)c4cn(-c5ccccc5)nn4)CC23C)O1 (stereo not shown),Hep3B,"cell growth or viability, MTT",,24 h,,IC50,> 30 µM
COCCNC(=O)C(NC(=O)C(O)(Cc1ccccc1)CN(Cc1ccc(Br)cc1)NC(=O)C(NC(=O)OC)C(C)(C)C)C(C)C (stereo not shown),Caco-2,,,"pH 7.4, 1% BSA in receiver",,Papp A-to-B,4.8 ± 0.1 ×10⁻⁶ cm/s
O=C(Nc1cc2nc(-c3ccc(F)c(F)c3)cn2cn1)N1CC[C@H](F)C1,MRC-5 SV2,,,concentration not given,,cytotoxicity,not toxic
CN(C)C(=O)C1CN1S(=O)(=O)c1ccc(C(C)(C)C)cc1 (stereo not shown),Balb/c 3T3 fibroblasts,"cytotoxicity, neutral red uptake",DMEM with 5% FBS,24 h,,IC50,12 ± 1 µM
CC(C)(C)OC(=O)N[C@@H](Cc1c[nH]c2ccccc12)C(=O)OC1CCC2(C)C(C(O)CC3(C)C2CC(O)C2C(C4(C)CCCC(C)(C)O4)CCC23C)C1(C)C (stereo partly shown),Hep3B,"cell growth or viability, MTT",,24 h,,IC50,> 30 µM
C#Cc1cccc(Nc2ncnc3cc(OC)c(OCCCN4CCOCC4)cc23)c1,Caco-2,,,"10 µM, 90 min, 37 °C",,Papp (A to B),9.13 ± 0.02 ×10⁻⁶ cm/s
O=[N+]([O-])c1ccc(-c2nc3c4ccccc4c4ccccc4c3[nH]2)cc1,PHA-stimulated human PBMCs,MTS,,"100 µM, 7 days",,cytotoxicity,46.3%
CC(C)(C)n1cc(CN(Cc2cn(CC(=O)O)nn2)Cc2cn(C(C)(C)C)nn2)nn1,OVCAR-5,"cellular uptake, LC-ESI-MS/MS",,"200 µM, 10 min, with: CuSO4 100 µM and ascorbate 500 µM",,intracellular concentration,4.3 ± 0.2 µM
CC1(C)CCCC(C)(C2CCC3(C)C2C(O)CC2C4(C)CCC(OC(=O)c5cn(-c6ccccc6)nn5)C(C)(C)C4C(OC(=O)c4cn(-c5ccccc5)nn4)CC23C)O1 (stereo not shown),Hep3B,"cell growth or viability, MTT",,24 h,,IC50,> 30 µM
COC(=O)C1CN1S(=O)(=O)c1ccc2cc(C)ccc2c1 (stereo not shown),Balb/c 3T3 fibroblasts,"cytotoxicity, neutral red uptake",DMEM with 5% FBS,24 h,,IC50,44 ± 6 µM
Nc1ncnc2c1c(F)cn2[C@@H]1O[C@H](CO)C[C@H]1O,MRC-5 SV2,"cytotoxicity, resazurin",medium with 5% FBS,72 h,,EC50,3.56 ± 0.8 µM
CN(C)C(=O)C1CN1S(=O)(=O)c1ccc2ccccc2c1 (stereo not shown),Balb/c 3T3 fibroblasts,"cytotoxicity, neutral red uptake",DMEM with 5% FBS,24 h,,IC50,9.6 ± 0.2 µM
COc1cc(-c2cncc(-c3ccc(N4CCNCC4)cc3)c2C)cc(OC)c1OC,Caco-2,,,"5 µM, 120 min, pH 7.4",,Papp A-B,5.4 ×10⁻⁶ cm/s
CNC(=O)C(NC(=O)C(O)(Cc1ccccc1)CN(Cc1ccc(Br)cc1)NC(=O)C(NC(=O)OC)C(C)(C)C)C(C)(C)C (stereo not shown),Caco-2,,,pH 7.4,reference: B-to-A over A-to-B,efflux ratio,28
COc1ccc(-c2coc3c(CC=C(C)C)c(O)c(CC=C(C)C)c(O)c3c2=O)cc1O,A549,"cell growth or viability, MTT",,12.5 µg/mL,,viability,113%
COc1ccc(/C=C\C(=O)OC2CC3(C)C(CC(O)C4C(C5(C)CCCC(C)(C)O5)CCC43C)C3(C)CCC(O)C(C)(C)C23)cc1 (stereo not shown),Hep3B,"cell growth or viability, MTT",,24 h,,IC50,> 30 µM
CC(=O)N[C@H](C(=O)N[C@H](C(=O)N[C@@H](CCCNC(=N)N)C(=O)N1Cc2ccccc2C[C@H]1C(=O)N[C@@H](Cc1ccccc1)C(N)=O)C1CCCCC1)C(C)C,human PBMC,"Bio-Plex multiplex, item: IL-7",,"250 µg/mL, 24 h",,cytokine level,0.3 ± 0.5 pg/mL
CCCCCCc1ccc(S(=O)(=O)N2CC2C(=O)N2CCOCC2)cc1 (stereo not shown),Balb/c 3T3 fibroblasts,"cytotoxicity, neutral red uptake",DMEM with 5% FBS,24 h,,IC50,8.6 ± 0.7 µM
Cc1nc(C)c(C=[N+]([O-])C(C)(C)C)nc1C,Sprague-Dawley rat primary midbrain neurons,,,"300 µM, 24 h",reference: untreated,viability,97.8 ± 3.93%

# A few entries again:
Structure (SMILES),cell line,assay,test system,setting,scale,endpoint,result
COc1cc(/C=C/C(=O)CC(C)=O)ccc1O,normal cells,,,up to 10 µM,,cytotoxicity,toxic
Nc1ncnc2c1ccn2[C@H]1C[C@H](O)[C@@H](CO)O1,MRC-5 SV2,"cytotoxicity, resazurin",medium with 5% FBS,72 h,,EC50,> 64 µM
CC1(C)CCCC(C)(C2CCC3(C)C2C(O)CC2C4(C)CCC(OC(=O)/C=C\c5ccc(Cl)cc5)C(C)(C)C4C(O)CC23C)O1 (stereo not shown),Hep3B,"cell growth or viability, MTT",,24 h,,IC50,> 30 µM
